Published values from different studies.
Each line is one published result; not all experiments were run side by side. ± marks the error that the study gave.

The monocytes of CC(C)C[C@H](NC(=O)[C@H](CCCCN)NC(=O)OCC1c2ccccc2-c2ccccc21)C(=O)N[C@H](C(=O)N[C@@H](Cc1ccccc1)C(=O)N[C@@H](Cc1ccccc1)C(=O)N[C@@H](CCCCN)C(=O)NCC(=O)N[C@@H](Cc1ccccc1)C(=O)N[C@@H](C)C(=O)N[C@@H](Cc1c[nH]c2ccccc12)C(=O)N[C@@H](CC(N)=O)C(=O)N[C@H](C(=O)N[C@H]1CSSC[C@@H](C(=O)N[C@@H](Cc2c[nH]cn2)C(=O)N[C@@H](CCCNC(=N)N)C(=O)N[C@@H](CCCNC(=N)N)C(=O)N[C@@H](C)C(=O)N[C@@H](CC(N)=O)C(N)=O)NC(=O)[C@H](C(C)C)NC(=O)[C@H](CCCNC(=N)N)NC(=O)[C@H](C(C)C)NC(=O)CNC(=O)[C@H](CC(N)=O)NC(=O)[C@H](CCCNC(=N)N)NC(=O)[C@H](Cc2ccc(O)cc2)NC(=O)[C@H](C(C)C)NC1=O)C(C)C)C(C)C is reported as 2.93 ± 0.35% (ICR mice, blood; intraperitoneal, 5 mg/kg, day 5).
For Cc1cccc(Cn2nc(C3CC3)c3c(NC(=O)c4cnc5cc(OCCN6CCN(C)CC6)ccn45)cccc32)n1, “adverse events incidence” read 63.2% (refers to: AST increased; human advanced solid tumours; oral, dose not given, all-causality,, all doses).
Under “incidence of Constipation TEAE”, CO[C@H]1C[C@@H]2CC[C@@H](C)[C@@](O)(O2)C(=O)C(=O)N2CCCC[C@H]2C(=O)O[C@H]([C@H](C)C[C@@H]2CC[C@@H](OC(=O)NCCOCCOCCOCCOCCOCCOCCOCCOCCC(=O)N3CCc4cc(Cn5nc(-c6ccc7oc(N)nc7c6)c6c(N)ncnc65)ccc4C3)[C@H](OC)C2)C[C@@H](O)[C@H](C)/C=C(\C)[C@@H](O)[C@@H](OC)C(=O)[C@H](C)C[C@H](C)/C=C/C=C/C=C/1C is recorded as 20% (patients with advanced solid tumours; intravenous, 1.6 mg/3 mg weekly, any grade).
N=c1c2c(-c3ccccc3)c(-c3ccccc3)n(Cc3ccccc3)c2ncn1[C@H]1CC[C@H](O)CC1: “CL as % of hepatic blood flow” less than 5% (Gottingen minipig, female, plasma; intravenous, 0.25 mg/kg).
Clc1nc[n]([Au][PH](c2ccccc2)(c2ccccc2)c2ccccc2)c1Cl has an MRT of 11.4 h (NCG mouse, plasma; intraperitoneal, 10 mg/kg).
O=C1[O][Pt]2([NH][C@@H]3CCCC[C@H]3[NH]2)[O]C1=O gave a terminal half-life of 32.5 h (mouse BALB/c, serum; intravenous, 9 mg/kg).
The tissue uptake of CC[C@H](C)[C@H](NC(=O)[C@H](Cc1ccccc1)NC(=O)[C@H](CCC(=O)O)NC(=O)[C@H](CCCNC(=N)N)NC(=O)[C@H](C)NC(=O)[C@H](C)NC(=O)[C@H](CCC(N)=O)NC(=O)[C@H](CCC(=O)O)NC(=O)[C@H](CCC(=O)O)NC(=O)[C@H](CC(C)C)NC(=O)[C@H](Cc1ccc(O)cc1)NC(=O)[C@H](CO)NC(=O)[C@H](CO)NC(=O)[C@@H](NC(=O)[C@H](CC(=O)O)NC(=O)[C@H](CO)NC(=O)[C@@H](NC(=O)[C@H](Cc1ccccc1)NC(=O)[C@@H](NC(=O)CNC(=O)[C@H](CCC(=O)O)NC(=O)[C@H](C)NC(=O)CCc1cnc[nH]1)[C@@H](C)O)[C@@H](C)O)C(C)C)C(=O)N[C@@H](C)C(=O)N[C@@H](Cc1c[nH]c2ccccc12)C(=O)N[C@@H](CC(C)C)C(=O)N[C@H](C(=O)N[C@@H](CCCNC(=N)N)C(=O)NCC(=O)N[C@@H](CCCNC(=N)N)C(=O)N[C@@H](CCCCNC(=O)COCCOCCNC(=O)COCCOCCNC(=O)CC[C@H](NC(=O)CCCCCCCCCCCCCCCCC(=O)O)C(=O)O)C(=O)NCC(=O)NCC(=O)N[C@@H](CO)C(=O)N[C@@H](CCSC)C(=O)N[C@H](C(=O)N[C@@H](CCCCNc1c(NCCCCCN(O)C(=O)CCC(=O)NCCCCCN(O)C(=O)CCC(=O)NCCCCCN(O)C(C)=O)c(=O)c1=O)C(=O)O)C(C)C)C(C)C [zirconium-89 labelled] is reported as 1.31 %ID/g (ex vivo gamma counting; male Sprague-Dawley rats, liver; intravenous, 1 nmol, 72 h, mean of 3 animals).
O=S(=O)(Nc1ccccc1)c1ccc(NC(=S)Nc2ccccc2)cc1 has an albumin level of 3.1 g/dL (female mouse, blood; oral, 5 mg/kg daily, 14 days).
NCCCC[C@@H]1NC(=O)[C@@H](Cc2c[nH]c3ccccc23)NC(=O)[C@H](c2ccccc2)NC(=O)[C@@H]2C[C@@H](OC(=O)NCCN)CN2C(=O)[C@H](Cc2ccccc2)NC(=O)[C@H](Cc2ccc(OCc3ccccc3)cc2)NC1=O — result for “subjects with adverse event Nausea”: 54% (healthy human volunteers; 600 µg twice daily).
Under “grade ≥3 vomiting incidence”, CCN1[C@@H](C(=O)NC23CCC(C(=O)O)(CC2)CC3)[C@H](c2cccc(Cl)c2F)[C@]2(C(=O)Nc3cc(Cl)ccc32)C12CCCCC2 is recorded as 12.5% (patients with advanced solid tumours; oral, 150 mg).
O=C1Nc2cc3[nH]nc(-c4ccncc4)c3cc2CN1Cc1ccccc1: “patients with subretinal fluid” 33% (CTCAE v4.03; human, relapsed or refractory advanced solid tumours; intravenous, 9.6 mg/kg, pooled schedules).
The MRT of N#C[C@@]1(n2ccc(N)nc2=O)O[C@H](CO)[C@@H](O)[C@H]1O is reported as 1.02 h (CD-1 mouse, plasma; intravenous, 15 mg/kg).
C[C@@H]1OC(=O)NN=C1c1ccc(-c2ccc(F)cc2)c(C(F)(F)F)c1: “patients with adverse event” 0% (phase I trial, refers to: Nausea worst grade 1; human patients; 20 mg loading then 1 mg daily).
CC(C)NCCCC[C@@H]1NC(=O)[C@H](Cc2ccc(O)cc2)NC(=O)[C@H](Cc2ccccc2)NC(=O)CC[C@H](C(=O)N[C@@H](CCCCNC(C)C)C(=O)N[C@@H](CCCCNC(=O)[C@H](CCC(=O)O)NC(=O)[C@H](CCC(=O)O)NC(=O)[C@H](CCC(=O)O)NC(=O)CN2CCN(CC(=O)O)CCN(CC(=O)O)CC2)C(N)=O)NC(=O)CNC(=O)[C@H](Cc2ccc3ccccc3c2)NC(=O)[C@@H](CCCNC(=N)N)NC1=O [fluorine-18 labelled] — result for “intact parent fraction”: 97% (mouse, plasma; 10 min, post injection).

Some of these lines once more:
NCCCC[C@@H]1NC(=O)[C@@H](Cc2c[nH]c3ccccc23)NC(=O)[C@H](c2ccccc2)NC(=O)[C@@H]2C[C@@H](OC(=O)NCCN)CN2C(=O)[C@H](Cc2ccccc2)NC(=O)[C@H](Cc2ccc(OCc3ccccc3)cc2)NC1=O — result for “subjects with adverse event Nausea”: 54% (healthy human volunteers; 600 µg twice daily).
Under “grade ≥3 vomiting incidence”, CCN1[C@@H](C(=O)NC23CCC(C(=O)O)(CC2)CC3)[C@H](c2cccc(Cl)c2F)[C@]2(C(=O)Nc3cc(Cl)ccc32)C12CCCCC2 is recorded as 12.5% (patients with advanced solid tumours; oral, 150 mg).
